Published values pooled from the literature.
Parts stem from different laboratories: compare values within a part only. Positions count from the first letter of the parent shown.

Set 1
Target: tungstate, free oxyanion
Method: microfluidic competitive inhibition
Sample: in vitro, cell-free expressed
Concentration: not given
Notes: derived from inhibition constants, unchanged parent 2230 nM
Direction: lower = stronger binding
Parent: PafA, mature enzyme, eGFP fusion (Elizabethkingia meningoseptica, UniProt Q9KJX5); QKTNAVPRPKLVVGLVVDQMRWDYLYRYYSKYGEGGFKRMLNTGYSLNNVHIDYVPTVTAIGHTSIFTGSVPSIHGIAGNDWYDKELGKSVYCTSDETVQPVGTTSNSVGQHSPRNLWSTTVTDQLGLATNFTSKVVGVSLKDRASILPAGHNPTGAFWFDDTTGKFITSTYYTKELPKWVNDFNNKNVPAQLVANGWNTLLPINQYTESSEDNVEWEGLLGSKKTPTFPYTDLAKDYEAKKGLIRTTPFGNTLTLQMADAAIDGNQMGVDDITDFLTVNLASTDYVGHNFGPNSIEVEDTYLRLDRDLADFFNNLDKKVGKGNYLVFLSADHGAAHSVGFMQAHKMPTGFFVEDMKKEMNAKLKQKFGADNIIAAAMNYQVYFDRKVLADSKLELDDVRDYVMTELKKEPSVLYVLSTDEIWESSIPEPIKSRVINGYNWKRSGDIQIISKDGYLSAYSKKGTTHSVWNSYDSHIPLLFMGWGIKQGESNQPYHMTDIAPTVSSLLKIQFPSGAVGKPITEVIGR
| Change | oxyanion analog dissociation constant [nM] |
| --- | --- |
| L456G | 1270 |
| L202V | 2580 |
| V403G | 2290 |

Set 2
Target: JUN, bZIP domain (human)
Method: DHFR protein complementation
Sample: yeast
Notes: single substitutions, most at no-binding floor
Baseline: wild-type JUN-FOS pair
Direction: higher = stronger binding
Parent: JUN, bZIP domain (human); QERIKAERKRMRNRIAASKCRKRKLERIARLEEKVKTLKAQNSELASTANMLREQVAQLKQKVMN; partner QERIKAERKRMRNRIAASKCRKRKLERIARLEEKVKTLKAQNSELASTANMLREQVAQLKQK
| Change | binding fitness [natural log] |
| --- | --- |
| A40G | -0.63 |
| T48W | -0.817 |
| A46Q | -0.121 |
| V35A | -0.746 |
| Q41L | -0.316 |
| E33C | -0.576 |
| T37L | -0.0916 |
| E44F | -0.414 |

Set 3
Target: PABPC1L2, full length, GST fusion (mouse, UniProt A0ABA7IW68)
Method: RNAcompete
Molecule type: RNA
Sample: in vitro
Concentration: 20 nM
Notes: 7-mer, probes averaged, single round
Baseline: mean of 7-mers
Direction: higher = stronger binding
Residues (chain): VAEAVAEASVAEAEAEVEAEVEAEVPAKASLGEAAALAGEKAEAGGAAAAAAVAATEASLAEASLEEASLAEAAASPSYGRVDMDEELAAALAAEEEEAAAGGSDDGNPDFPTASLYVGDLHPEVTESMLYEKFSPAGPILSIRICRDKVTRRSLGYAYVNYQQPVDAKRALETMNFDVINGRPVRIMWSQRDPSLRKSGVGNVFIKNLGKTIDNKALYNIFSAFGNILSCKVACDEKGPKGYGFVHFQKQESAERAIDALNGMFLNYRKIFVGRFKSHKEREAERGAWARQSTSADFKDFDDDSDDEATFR
| Oligonucleotide | 7-mer Z-score |
| --- | --- |
| UGCGGAC | 0.0841 |
| CAAUGUA | -0.128 |
| CACUGAC | -0.15 |
| CCCCCAA | -0.354 |
| AUUAAGG | 0.189 |
| CAAGUGG | 0.102 |
| ACUUGAC | -0.204 |
| AAUCUAC | 0.00979 |

Further values, each from its own experiment
CCND3: CCND3, cyclin fold, Cln2 fusion (human)
P1: viral docking peptide; PTARRRLLHDLDT; partner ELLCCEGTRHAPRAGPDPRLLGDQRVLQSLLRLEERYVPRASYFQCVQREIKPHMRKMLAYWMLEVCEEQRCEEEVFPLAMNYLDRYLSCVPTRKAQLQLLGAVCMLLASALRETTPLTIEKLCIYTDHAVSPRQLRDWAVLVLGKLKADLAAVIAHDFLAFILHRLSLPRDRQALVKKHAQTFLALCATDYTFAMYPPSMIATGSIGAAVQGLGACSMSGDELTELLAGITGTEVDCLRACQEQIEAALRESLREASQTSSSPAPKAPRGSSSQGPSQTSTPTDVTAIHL
| Molecule | tested on | test | system | conditions | scale | endpoint | value |
| --- | --- | --- | --- | --- | --- | --- | --- |
| AAAVRKPIVLKR | human cyclin B2 | peptide binding, yeast competitive growth sequencing | peptide, Saccharomyces cerevisiae, cyclin B2-Cln2 fusion | concentration not given, peptide tiling library | direction not given | binding enrichment score | -0.42 |
| NUP98 (Homo sapiens, UniProt P52948) | NUP205 (Homo sapiens, UniProt Q92621) | cross-linking MS | cell fractions | with: DMTMM |  | cross-linked residues | K563 to E161 |
| P1 H9A | CCND3 | yeast growth competition, sequencing | yeast | weak parent motif | baseline: not given, higher = stronger binding | normalised enrichment score | 0.125 |
| P1 R4A | CCND3 | yeast growth competition, sequencing | yeast | weak parent motif | baseline: not given, higher = stronger binding | normalised enrichment score | 0.0291 |

Some of these lines once more (set 1):
| Change | oxyanion analog dissociation constant [nM] |
| --- | --- |
| V403G | 2290 |
